Experimental data gathered from unrelated publications.
A part holds a random share of what one study measured. Positions count from the first letter of the parent shown.

Study 1
Target: POU, POU domain (Salpingoeca helianthica)
Method: Spec-seq
Molecule type: double-stranded DNA, one strand shown
Sample: in vitro
Tested at: not given
Notes: whole probe, mean of replicates
Reference: not given
Direction: lower = stronger binding
Shared flanks, not repeated: GAGTCGTCTCGTCAGCAC … CCGTAGAGCACTCAGGTC
Construct (chain): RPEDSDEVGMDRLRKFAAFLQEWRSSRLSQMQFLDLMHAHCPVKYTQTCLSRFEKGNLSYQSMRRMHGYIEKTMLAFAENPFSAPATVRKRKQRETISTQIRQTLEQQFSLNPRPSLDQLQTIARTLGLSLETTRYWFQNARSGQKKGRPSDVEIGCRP
Under “relative binding energy”, `ATGCCCAA` is recorded as 1.27 ln ratio.
`GCAGTAAT` — result for “relative binding energy”: 0.651 ln ratio.
`ACGCTAAT`: “relative binding energy” 0.45 ln ratio.
For `ATCACTAT`, “relative binding energy” read 0.889 ln ratio.
`AAGCTAAT` — result for “relative binding energy”: 0.688 ln ratio.
`ATTTTGAT` — result for “relative binding energy”: 0.821 ln ratio.
For `ATGCGCTG`, “relative binding energy” read 0.835 ln ratio.
`CTTGTAAT` — result for “relative binding energy”: -0.262 ln ratio.

Study 2
Target: ABI1, truncated, D143A, DHFR fusion (Arabidopsis thaliana)
Method: DHFR PCA, deep sequencing
Sample: yeast
Notes: methotrexate growth selection, single substitutions
Added: (+)-ABA 58 µM
Reference: wild-type fitted maximum
Direction: higher = stronger binding
Parent: PYL1, truncated, DHFR fusion (Arabidopsis thaliana); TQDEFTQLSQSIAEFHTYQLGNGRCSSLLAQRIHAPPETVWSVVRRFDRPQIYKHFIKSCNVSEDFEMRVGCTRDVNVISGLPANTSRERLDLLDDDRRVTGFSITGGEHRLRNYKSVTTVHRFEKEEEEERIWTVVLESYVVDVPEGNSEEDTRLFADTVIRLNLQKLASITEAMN; partner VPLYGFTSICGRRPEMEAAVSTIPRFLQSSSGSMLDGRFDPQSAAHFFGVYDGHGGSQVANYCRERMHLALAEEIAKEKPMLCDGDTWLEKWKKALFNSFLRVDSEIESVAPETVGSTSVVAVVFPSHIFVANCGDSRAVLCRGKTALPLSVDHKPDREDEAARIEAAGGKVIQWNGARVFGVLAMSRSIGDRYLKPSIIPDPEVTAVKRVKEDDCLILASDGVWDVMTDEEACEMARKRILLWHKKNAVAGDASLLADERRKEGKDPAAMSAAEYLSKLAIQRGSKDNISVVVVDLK
For `G148V`, “relative binding score” read 23.6%.
Under “relative binding score”, `S27G` is recorded as 93%.
Under “relative binding score”, `R99W` is recorded as 99.6%.
Under “relative binding score”, `K54R` is recorded as 18.4%.
Under “relative binding score”, `G107I` is recorded as -3.34%.
For `R111L`, “relative binding score” read 64.5%.
`N165F`: “relative binding score” -9.69%.
`I57H` — result for “relative binding score”: -11.4%.

Study 3
Target: RNA binding protein fox-1 homolog 2, RRM domain, GST-SBP tag (RBFOX2, Homo sapiens, UniProt O43251-10, residues 100-194)
Method: RNA Bind-n-Seq
Molecule type: RNA
Sample: in vitro
Tested at: 365 nM
Notes: natural RNA segment, single round, ends assumed
Reference: no-protein control
Direction: higher = stronger binding
Residues (chain): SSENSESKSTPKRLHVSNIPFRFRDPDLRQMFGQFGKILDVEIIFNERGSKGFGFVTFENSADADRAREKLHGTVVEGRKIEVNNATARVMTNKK
`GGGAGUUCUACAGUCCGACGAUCUAUCUAGCUGCAAAGCCUGGCUUUGAUUUGAAAUUUUGUAAAAAUUUCAUGGCACCCAAGGUUUCUGAUUCUGACCCAGCAGUGGUCCUGAAGAGAGCUGAUGGCAAGUCUGGAAUUCUCGGGUGCCAA`: “RBNS enrichment (R)” 0.413.
`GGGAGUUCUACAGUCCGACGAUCUUCUAGUGCUCUUAUAUGUCUUUAAUUAUAGGACUGGAAUGAAAAGCUUAACCAUACAGUAUUUCUAAGCAAAAUAAUGUACUCCAUUCUUUUGUCCAUGCUCUCAUUGCUGGAAUUCUCGGGUGCCAA`: “RBNS enrichment (R)” 0.622.
For `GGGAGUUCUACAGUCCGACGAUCAAAUUUCAUGAUUGGCUUAAAGUGAAGGAAAUAAAGGUAAAAUCACUUCAGAUCUCUAAUUAGUCUAUCAAAUGAAACUCUUUCAUUCUUCUCACAUCCAUCUACUUUUUUGGAAUUCUCGGGUGCCAA`, “RBNS enrichment (R)” read 0.513.
Under “RBNS enrichment (R)”, `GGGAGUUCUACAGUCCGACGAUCCUCCAUUGGCUAAGAUAGAACACUUAAAAACACUUUUCUCCCCCUUGUUGGGAGUGCUUUAUUUUUUAAAAGCAAACCUAAAUGAAACUAUUUUUCCCCUUAAAAUAGGAUGGAAUUCUCGGGUGCCAA` is recorded as 0.825.
`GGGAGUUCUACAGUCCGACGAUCAAGAAGUGUUUCAAACGAUCUGAAUGUAUAAAACAAGUCAAUGCCCUACAUGGUGUGAUGCUGCAUUAUAUAUACAACCGUGUGCAUAUAUUAAAUUCUGUUUGUCGAGUUGGAAUUCUCGGGUGCCAA`: “RBNS enrichment (R)” 0.273.
`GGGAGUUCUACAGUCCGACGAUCAGACCUUAAUUCUUACUCACUGCUGUGGCUGGAGAGUAUAAGGAAUGCUUUUUCUUUUUUUCUUUCUUUCUUUCUUUUUUUUUUUUAAGACAGCAGUCUUUUUUUUUAAUUGGAAUUCUCGGGUGCCAA`: “RBNS enrichment (R)” 0.99.
For `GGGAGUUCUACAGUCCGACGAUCGUACAUUUGUAAAUACUCAGUUUUGUAUUGUAUGUAUAUGAUUGCUAUUCUCAGAGGUUUGGACUUUCGUAUUGUAAUUAGCUCUGUUGGCAUGGUGACUUGUCACUCCUUGGAAUUCUCGGGUGCCAA`, “RBNS enrichment (R)” read 5.61.
Under “RBNS enrichment (R)”, `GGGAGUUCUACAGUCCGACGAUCCCACUAACUGCUUGCUGGGGACAGGCAAACCCGGACUGUGCAAAGUUACUAGCCCGUAGCUCUUGGGCUGCUCCACAUGGCUCCUUACGGCCGGCAAGAAUGGAUGUAAAUGGAAUUCUCGGGUGCCAA` is recorded as 1.43.

Mixed results
Parent: PafA, mature enzyme, eGFP fusion (Elizabethkingia meningoseptica, UniProt Q9KJX5); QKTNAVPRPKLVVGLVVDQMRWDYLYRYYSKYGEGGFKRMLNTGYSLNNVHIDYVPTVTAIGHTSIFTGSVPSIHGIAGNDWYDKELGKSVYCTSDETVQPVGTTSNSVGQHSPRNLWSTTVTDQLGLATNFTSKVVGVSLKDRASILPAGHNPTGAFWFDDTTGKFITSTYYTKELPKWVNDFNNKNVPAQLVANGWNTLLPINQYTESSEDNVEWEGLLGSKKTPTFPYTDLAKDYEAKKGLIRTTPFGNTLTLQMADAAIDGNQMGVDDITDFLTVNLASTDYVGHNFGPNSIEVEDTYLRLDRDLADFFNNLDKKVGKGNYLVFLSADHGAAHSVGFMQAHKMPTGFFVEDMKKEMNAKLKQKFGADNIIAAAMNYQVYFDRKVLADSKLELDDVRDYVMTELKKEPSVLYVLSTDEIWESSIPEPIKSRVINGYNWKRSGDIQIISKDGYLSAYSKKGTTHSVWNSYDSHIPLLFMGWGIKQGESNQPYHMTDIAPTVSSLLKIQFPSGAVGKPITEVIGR
`A390G`: “oxyanion analog dissociation constant” 1300 nM (vanadate, free oxyanion; microfluidic competitive inhibition; in vitro, cell-free expressed; not given, derived from inhibition constants, unchanged parent 676 nM; lower = stronger binding).
